Assay results from different studies.
Protocols differ between the studies behind these lines.
Read-out: metabolic stability

Compound = CN(C)C(=O)c1cccc(N2Cc3cn(Cc4ccc(F)cc4)nc3C2)c1; species = rat; medium = liver microsomes; half-life = 2.57 h
Compound = CCC(CC)CNC(=N)NC(=N)NCCCCCCNC(=N)NC(=N)NCC(CC)CC; species = rat; medium = hepatocytes; concentration = 1 µM; half-life = 2.15 h
Compound = CC(C)(C)n1ncc2c(=O)n(Cc3cccc(F)c3)c(NCc3ccc(C(F)(F)F)nc3)nc21; species = rat; medium = liver microsomes; half-life = 0.15 h
Compound = O=c1c(-c2cnn(-c3ccccc3)c2)c(C(F)(F)F)oc2c(O)c(O)ccc12; species = rat; medium = liver microsomes; half-life = 1.87 h
Compound = C/C(N)=N/C(=N\S(=O)(=O)c1ccc(C(F)(F)F)cc1)N1C[C@H](c2ccccc2)C(c2ccc(Cl)cc2)=N1; species = rat; medium = liver microsomes; half-life = > 2 h
Compound = C=CC(=O)N1CCCC(n2c(=O)c3ncccc3n(Cc3ccc(Oc4ccccc4)cc3)c2=O)C1 (stereo not shown); species = male Sprague-Dawley rat; medium = hepatocytes; concentration = 1 µM; half-life = 0.0783 h
Compound = CN(C)C(=O)c1ccnc(N2Cc3cn(Cc4ccc(F)c(Cl)c4)nc3C2)n1; species = rat; medium = liver microsomes; half-life = 1.33 h
Compound = COc1ccc(CNc2nc3c(cnn3C(C)(C)C)c(=O)n2Cc2cccc(F)c2)cn1; species = rat; medium = liver microsomes; half-life = 0.095 h
Compound = Cc1ncsc1-c1ccc(CNC(=O)[C@@H]2C[C@@H](O)CN2C(=O)[C@@H](NC(=O)COCCOCCOCCNC(=O)C[C@@H]2N=C(c3ccc(Cl)cc3)c3c(sc(C)c3C)-n3c(C)nnc32)C(C)(C)C)cc1; species = rat; medium = liver microsomes; concentration = 1 µM; half-life = 0.0967 h
Compound = CC(C)(C)n1ncc2c(=O)n(Cc3cccc(F)c3)c(NCc3ccccn3)nc21; species = rat; medium = liver microsomes; half-life = 0.0883 h
Compound = CN(C)C(=O)c1cccc(N2Cc3cn(Cc4ccc(F)cc4F)nc3C2)c1; species = rat; medium = liver microsomes; half-life = 1 h
Compound = CC(C)(C)n1ncc2c(=O)n(Cc3cccc(F)c3)c(NCc3ccc(Cl)nc3)nc21; species = rat; medium = liver microsomes; half-life = 3.38 h
Compound = CN(C)C(=O)c1ccnc(N2Cc3cn(Cc4ccc(F)cc4)nc3C2)n1; species = rat; medium = liver microsomes; half-life = 2.63 h

For quick reference, copied from above:
Compound = CCC(CC)CNC(=N)NC(=N)NCCCCCCNC(=N)NC(=N)NCC(CC)CC; species = rat; medium = hepatocytes; concentration = 1 µM; half-life = 2.15 h
Compound = CC(C)(C)n1ncc2c(=O)n(Cc3cccc(F)c3)c(NCc3ccc(C(F)(F)F)nc3)nc21; species = rat; medium = liver microsomes; half-life = 0.15 h
